Assay results gathered from unrelated publications.
Each line is one published result; not all experiments were run side by side. Numbers after ± are the reported error.
Cell line: NCI-H460

SMILES	test	conditions	quantity	result
Cn1c(=O)c(/C=C/c2ccc(F)cc2)nc2ccccc21	cell growth or viability, MTT	72 h	IC50	13800 nM
COc1ccc(C2=NN(C(=O)CCC(=O)O)C(c3cn(-c4ccccc4)nc3-c3ccc(C)cc3)C2)cc1 (centres unmarked)	cell growth or viability, flow cytometry	48 h	IC50	56900 nM
CCCCCC(=O)N[C@H](C(=O)NC(CSc1c(F)c(F)c(F)c(F)c1F)C(=O)N[C@@H](CC(C)C)C(=O)[C@@]1(C)CO1)C(C)C (stereo in doubt)	cell growth or viability		IC50	1130 nM
O=C(O)Cc1ccccc1Nc1c(Cl)cccc1Cl.c1cnc2c(c1)ccc1cccnc12	cell viability, MTT	48 h	IC50	3520 ± 4 nM
Cc1ccc(C2=NN(C(=O)CCC(=O)O)C(c3cn(-c4ccccc4)nc3-c3ccc(C)cc3)C2)cc1 (centres unmarked)	cell growth or viability, flow cytometry	48 h	IC50	49900 nM
C#C[C@@]1(O)[C@@H](CO)O[C@@H](n2cc(Cl)c3c(N)ncnc32)[C@@H]1O	cell growth or viability, SRB	48 h	GI50	10 to 46 nM
O=c1[nH]c2ccccc2nc1/C=C/c1cccs1	cell growth or viability, MTT	72 h	IC50	> 50000 nM
CC(C)C[C@H](NC(=O)[C@H](CCc1ccccc1)NC(=O)CN1CCOCC1)C(=O)N[C@@H](Cc1ccccc1)C(=O)N[C@@H](CC(C)C)C(=O)[C@@]1(C)CO1	cell growth or viability		IC50	56 nM
C#C[C@@]1(O)[C@@H](CO)O[C@@H](n2cc(I)c3c(N)ncnc32)[C@@H]1O	cell growth or viability, SRB	48 h	GI50	98 nM
O=c1[nH]c2ccccc2nc1/C=C/c1ccccc1[N+](=O)[O-]	cell growth or viability, MTT	72 h	IC50	> 50000 nM
CC(C)C[C@H](NC(=O)[C@@H]1CSCCOCCOCCC(=O)N[C@@H](C(C)C)C(=O)N1)C(=O)[C@@]1(C)CO1	cell growth or viability		IC50	430 nM

For quick reference, copied from above:
SMILES	test	conditions	quantity	result
C#C[C@@]1(O)[C@@H](CO)O[C@@H](n2cc(I)c3c(N)ncnc32)[C@@H]1O	cell growth or viability, SRB	48 h	GI50	98 nM
